Values quoted from earlier work as cited in several papers.
Protocols differ between the studies behind these lines.

CC(C)C[C@H](NC(=O)[C@H](Cc1ccccc1)NC(=O)CNC(=O)CNC(=O)[C@@H](N)Cc1ccc(O)cc1)C(=O)O  half-life (aminopeptidase N; substrate; human plasma; 0.50 U/mL enzyme): 41.4 s
[2H]C([2H])([2H])C([2H])([2H])C([2H])([2H])OC(C(=O)OC1CCNCC1)(c1ccccc1)c1ccccc1  hepatic CYP3A activity (CYP3A, human; healthy human; 3 mg): no effect
O=C(O)CN1CCN(CC(=O)NCCN(Cc2ccccn2)Cc2ccccn2)CCN(CC(=O)O)CCN(CC(=O)NCCN(Cc2ccccn2)Cc2ccccn2)CC1.[Gd+3]  Kd (Albumin (ALB, Homo sapiens, UniProt P02768); binding): 42 µM
COC(=O)[C@@H](N)CS  pKa (thiol group): 7
O=C(OCC[18F])C1C2CCC(CC1c1ccc(/C=C\I)cc1)N2 (centres unmarked)  time to peak uptake (SERT; microPET; anaesthetised, caudate): 105 min
CCCCCC1=C(NCC)C(=O)C(C/C=C(\C)CCC=C(C)C)=C(O)C1=O  inhibition (cytochrome P450 isoforms; concentration not given): no inhibition
CC(=O)NC(CS)C(=O)O (centres unmarked)  pKa (thiol group): 9.5
CC[C@H](C)C(=O)N1CCC(NC(=O)Nc2ccc(OC(F)(F)F)c(F)c2)CC1  IC50 (OAT3; inhibitor): 9.1 µM

Some of these lines once more:
CCCCCC1=C(NCC)C(=O)C(C/C=C(\C)CCC=C(C)C)=C(O)C1=O  inhibition (cytochrome P450 isoforms; concentration not given): no inhibition
